Measured values pooled from the literature.
Parts stem from different laboratories: compare values within a part only.
UniProt O95819, sequence (whole entry, looked up): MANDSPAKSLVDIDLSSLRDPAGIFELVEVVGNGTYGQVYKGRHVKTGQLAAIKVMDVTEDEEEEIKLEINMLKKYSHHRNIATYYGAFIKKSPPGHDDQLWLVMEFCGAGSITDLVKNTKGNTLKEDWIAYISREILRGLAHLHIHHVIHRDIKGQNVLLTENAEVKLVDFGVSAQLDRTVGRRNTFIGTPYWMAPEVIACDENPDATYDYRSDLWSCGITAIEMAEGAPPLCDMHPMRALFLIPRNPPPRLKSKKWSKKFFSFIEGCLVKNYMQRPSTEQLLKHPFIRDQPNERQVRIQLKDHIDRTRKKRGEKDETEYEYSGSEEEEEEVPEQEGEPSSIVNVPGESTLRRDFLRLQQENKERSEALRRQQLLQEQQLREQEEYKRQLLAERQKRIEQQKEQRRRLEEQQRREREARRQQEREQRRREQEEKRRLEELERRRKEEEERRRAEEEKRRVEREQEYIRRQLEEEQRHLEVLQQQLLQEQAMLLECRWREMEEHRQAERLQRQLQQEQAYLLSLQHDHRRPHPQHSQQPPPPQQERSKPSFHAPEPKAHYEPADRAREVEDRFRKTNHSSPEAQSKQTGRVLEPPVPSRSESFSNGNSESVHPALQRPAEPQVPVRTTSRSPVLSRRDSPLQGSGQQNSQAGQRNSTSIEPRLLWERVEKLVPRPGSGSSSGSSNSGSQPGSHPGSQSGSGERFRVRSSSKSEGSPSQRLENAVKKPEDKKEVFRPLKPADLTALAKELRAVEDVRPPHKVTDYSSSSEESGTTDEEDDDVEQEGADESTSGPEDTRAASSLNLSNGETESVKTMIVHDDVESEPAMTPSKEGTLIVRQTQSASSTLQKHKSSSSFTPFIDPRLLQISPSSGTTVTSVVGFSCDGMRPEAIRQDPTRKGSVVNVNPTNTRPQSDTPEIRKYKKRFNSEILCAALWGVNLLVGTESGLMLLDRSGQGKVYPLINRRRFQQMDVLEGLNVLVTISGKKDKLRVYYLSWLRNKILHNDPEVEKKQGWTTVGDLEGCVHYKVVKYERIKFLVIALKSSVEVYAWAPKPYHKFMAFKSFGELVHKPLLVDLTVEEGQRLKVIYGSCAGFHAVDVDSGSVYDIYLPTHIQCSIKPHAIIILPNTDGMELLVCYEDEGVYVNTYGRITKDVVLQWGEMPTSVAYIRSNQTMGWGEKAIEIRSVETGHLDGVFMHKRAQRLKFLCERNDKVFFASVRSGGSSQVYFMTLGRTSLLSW
UniProt Q9BZL6, sequence (whole entry, looked up): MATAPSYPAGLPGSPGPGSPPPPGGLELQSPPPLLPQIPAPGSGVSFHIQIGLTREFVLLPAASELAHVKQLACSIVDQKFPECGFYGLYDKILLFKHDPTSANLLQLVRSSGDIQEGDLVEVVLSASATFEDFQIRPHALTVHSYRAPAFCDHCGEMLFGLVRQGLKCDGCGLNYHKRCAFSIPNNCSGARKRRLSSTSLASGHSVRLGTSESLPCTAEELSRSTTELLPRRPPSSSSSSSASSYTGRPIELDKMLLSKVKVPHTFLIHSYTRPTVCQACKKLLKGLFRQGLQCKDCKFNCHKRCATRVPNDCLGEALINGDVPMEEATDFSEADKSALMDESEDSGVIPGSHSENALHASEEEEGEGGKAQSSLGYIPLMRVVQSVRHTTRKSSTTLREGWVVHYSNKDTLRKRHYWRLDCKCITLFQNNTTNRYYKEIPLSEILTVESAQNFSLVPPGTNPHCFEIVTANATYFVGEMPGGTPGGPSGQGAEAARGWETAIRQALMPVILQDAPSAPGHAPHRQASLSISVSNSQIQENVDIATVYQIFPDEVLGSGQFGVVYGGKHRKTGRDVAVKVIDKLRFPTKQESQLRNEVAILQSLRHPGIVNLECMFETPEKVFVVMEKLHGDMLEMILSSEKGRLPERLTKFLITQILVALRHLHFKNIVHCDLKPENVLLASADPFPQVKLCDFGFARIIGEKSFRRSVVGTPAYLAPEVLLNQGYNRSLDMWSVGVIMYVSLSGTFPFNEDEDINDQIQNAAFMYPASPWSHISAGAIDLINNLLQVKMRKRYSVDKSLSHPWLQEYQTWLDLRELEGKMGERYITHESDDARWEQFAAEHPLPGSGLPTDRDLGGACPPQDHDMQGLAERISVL
UniProt O95747, sequence (whole entry, looked up): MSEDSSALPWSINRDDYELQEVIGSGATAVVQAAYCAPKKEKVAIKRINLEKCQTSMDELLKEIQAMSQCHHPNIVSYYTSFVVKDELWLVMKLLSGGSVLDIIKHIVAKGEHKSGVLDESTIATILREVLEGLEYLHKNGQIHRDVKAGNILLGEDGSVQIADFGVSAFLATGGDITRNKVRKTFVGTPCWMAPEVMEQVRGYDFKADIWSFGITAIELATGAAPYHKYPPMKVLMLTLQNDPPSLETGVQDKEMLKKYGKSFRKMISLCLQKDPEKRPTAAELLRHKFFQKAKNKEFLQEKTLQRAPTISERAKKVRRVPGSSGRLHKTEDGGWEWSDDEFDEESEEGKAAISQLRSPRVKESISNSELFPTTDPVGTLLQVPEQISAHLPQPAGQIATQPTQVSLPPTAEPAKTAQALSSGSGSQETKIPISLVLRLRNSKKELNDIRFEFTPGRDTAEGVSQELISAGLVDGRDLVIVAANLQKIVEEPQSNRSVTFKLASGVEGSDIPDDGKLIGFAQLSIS
UniProt Q9BYT3, sequence (whole entry, looked up): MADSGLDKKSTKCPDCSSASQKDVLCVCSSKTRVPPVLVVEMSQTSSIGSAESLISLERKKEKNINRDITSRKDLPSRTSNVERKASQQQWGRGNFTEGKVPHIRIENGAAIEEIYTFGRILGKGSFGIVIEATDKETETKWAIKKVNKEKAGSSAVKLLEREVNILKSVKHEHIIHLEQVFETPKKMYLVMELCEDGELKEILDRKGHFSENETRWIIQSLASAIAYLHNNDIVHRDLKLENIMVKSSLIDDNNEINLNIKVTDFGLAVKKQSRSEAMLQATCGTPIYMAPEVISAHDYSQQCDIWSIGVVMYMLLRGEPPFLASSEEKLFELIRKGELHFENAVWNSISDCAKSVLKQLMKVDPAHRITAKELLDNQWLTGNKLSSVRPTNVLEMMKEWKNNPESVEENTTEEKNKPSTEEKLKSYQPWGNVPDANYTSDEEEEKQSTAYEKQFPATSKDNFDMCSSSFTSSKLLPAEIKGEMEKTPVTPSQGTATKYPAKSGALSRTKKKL
UniProt Q9P289, sequence (whole entry, looked up): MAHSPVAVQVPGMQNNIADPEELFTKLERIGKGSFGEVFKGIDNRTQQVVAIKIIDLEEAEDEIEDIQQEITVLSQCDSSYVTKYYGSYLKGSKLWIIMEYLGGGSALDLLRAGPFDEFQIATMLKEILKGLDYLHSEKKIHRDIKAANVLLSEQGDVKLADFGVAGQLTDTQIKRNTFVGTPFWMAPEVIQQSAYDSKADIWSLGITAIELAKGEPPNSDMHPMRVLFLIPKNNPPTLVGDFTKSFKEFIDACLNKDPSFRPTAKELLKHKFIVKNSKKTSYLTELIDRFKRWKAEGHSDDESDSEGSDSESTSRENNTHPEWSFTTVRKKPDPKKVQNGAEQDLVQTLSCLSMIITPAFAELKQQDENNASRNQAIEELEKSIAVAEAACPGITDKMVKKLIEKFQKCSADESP

Series 1 — technique: RNAcompete; molecule type: RNA; medium: in vitro; tested at: 20 nM; setting: 7-mer, probes averaged, single round; relative to: mean of 7-mers; direction: higher = stronger binding; quantity: 7-mer Z-score
Target: PABPC1L2, full length, GST fusion (mouse, UniProt A0ABA7IW68)
Residues (chain): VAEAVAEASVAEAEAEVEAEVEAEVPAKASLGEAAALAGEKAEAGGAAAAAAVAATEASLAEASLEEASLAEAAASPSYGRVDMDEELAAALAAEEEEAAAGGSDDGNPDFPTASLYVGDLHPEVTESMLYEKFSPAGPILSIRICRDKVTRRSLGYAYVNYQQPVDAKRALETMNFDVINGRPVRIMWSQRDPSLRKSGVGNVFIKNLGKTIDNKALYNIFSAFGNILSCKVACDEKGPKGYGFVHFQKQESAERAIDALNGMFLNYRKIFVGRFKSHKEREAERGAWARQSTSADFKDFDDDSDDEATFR
GCCUGGA: -0.0917
CGGAGAC: 0.0569
CAUCUAC: -0.208
GCUAUUU: -0.215
AUAGUCU: -0.327
UUCGUAC: -0.275
UUCAGUU: -0.311
CGUAUUC: -0.322

Series 2 — SMILES: CCC(=N\O)/C(C)=C/c1ccc(F)cc1; observed: cell-free assay; technique: competition with immobilised ligand; tested at: 1 µM; quantity: remaining binding
Mitogen-activated protein kinase kinase kinase kinase 4 (MAP4K4, Homo sapiens, UniProt O95819): 97%
Proto-oncogene tyrosine-protein kinase receptor Ret (RET, Homo sapiens, UniProt P07949, V804L): 100%
Serine/threonine-protein kinase OSR1 (OXSR1, Homo sapiens, UniProt O95747): 80%
Serine/threonine-protein kinase Nek1 (NEK1, Homo sapiens, UniProt Q96PY6): 94%
Receptor tyrosine-protein kinase erbB-2 (ERBB2, Homo sapiens, UniProt P04626): 83%
Hormonally up-regulated neu tumor-associated kinase (HUNK, Homo sapiens, UniProt P57058): 76%
Serine/threonine-protein kinase Nek9 (NEK9, Homo sapiens, UniProt Q8TD19): 79%
Tyrosine-protein kinase JAK2, JH1 (JAK2, Homo sapiens, UniProt O60674): 71%
Serine/threonine-protein kinase ULK3 (ULK3, Homo sapiens, UniProt Q6PHR2): 74%
Microtubule-associated serine/threonine-protein kinase 1 (MAST1, Homo sapiens, UniProt Q9Y2H9): 71%
Serine/threonine-protein kinase 33 (STK33, Homo sapiens, UniProt Q9BYT3): 100%
3-phosphoinositide-dependent protein kinase 1 (PDPK1, Homo sapiens, UniProt O15530): 87%
Serine/threonine-protein kinase TAO2 (TAOK2, Homo sapiens, UniProt Q9UL54): 94%
Rhodopsin kinase GRK7 (GRK7, Homo sapiens, UniProt Q8WTQ7): 85%
Tyrosine-protein kinase JAK1, JH1 (JAK1, Homo sapiens, UniProt P23458): 96%
Serine/threonine-protein kinase D2 (PRKD2, Homo sapiens, UniProt Q9BZL6): 99%
Cyclin-dependent kinase 16 (CDK16, Homo sapiens, UniProt Q00536): 86%
TGF-beta receptor type-2 (TGFBR2, Homo sapiens, UniProt P37173): 74%
Serine/threonine-protein kinase 26 (STK26, Homo sapiens, UniProt Q9P289): 81%
G protein-coupled receptor kinase 3 (GRK3, Homo sapiens, UniProt P35626): 92%
Mitogen-activated protein kinase 12 (MAPK12, Homo sapiens, UniProt P53778): 100%
RAC-gamma serine/threonine-protein kinase (AKT3, Homo sapiens, UniProt Q9Y243): 83%
Cyclin-dependent kinase 4, with cyclin D1 (CDK4, Homo sapiens, UniProt P11802): 78%
Interleukin-1 receptor-associated kinase 1 (IRAK1, Homo sapiens, UniProt P51617): 79%
Serine/threonine-protein kinase pim-2 (PIM2, Homo sapiens, UniProt Q9P1W9): 83%

Series 3 — technique: protein-binding microarray; molecule type: hairpin DNA; medium: in vitro; tested at: not given; relative to: not given; direction: higher = stronger binding; quantity: median fluorescence; shared flanks, not repeated: GAGGCCA … TGGCCTCACACTC
Target: Protein C-ets-1, full length (ETS1, Homo sapiens, UniProt P14921, residues 1-441)
Setting: whole hairpin DNA, median over replicate spots
Residues (chain): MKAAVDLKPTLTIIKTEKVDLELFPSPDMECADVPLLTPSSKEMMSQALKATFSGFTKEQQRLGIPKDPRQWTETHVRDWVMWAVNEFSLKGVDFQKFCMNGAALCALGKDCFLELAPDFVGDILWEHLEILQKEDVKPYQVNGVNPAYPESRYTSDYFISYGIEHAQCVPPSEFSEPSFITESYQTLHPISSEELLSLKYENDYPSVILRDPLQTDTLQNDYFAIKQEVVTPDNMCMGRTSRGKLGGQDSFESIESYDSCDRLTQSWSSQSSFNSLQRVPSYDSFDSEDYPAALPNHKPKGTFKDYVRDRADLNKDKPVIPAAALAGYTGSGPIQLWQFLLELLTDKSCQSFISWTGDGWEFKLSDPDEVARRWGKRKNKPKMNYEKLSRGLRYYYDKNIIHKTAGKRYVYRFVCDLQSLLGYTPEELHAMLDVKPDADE
CTCGGAAGTTGCCTCCTGGCAACTTCCGAG: 2650 a.u.
CGCGGAAGTTGCCTCCTGGCAACTTCCGCG: 5590 a.u.
GTCGGAAGTAGCCTCCTGGCTACTTCCGAC: 2900 a.u.
GTCGGAGGTTGCCTCCTGGCAACCTCCGAC: 594 a.u.
GTCGGAAGTCGCCTCCTGGCGACTTCCGAC (5mC at 17): 4460 a.u.
GTCTGAAGTTGCCTCCTGGCAACTTCAGAC: 508 a.u.
GCCGGAAGTTGCCTCCTGGCAACTTCCGGC (5mC at 30): 10500 a.u.
GTCGGTAGTTGCCTCCTGGCAACTACCGAC: 558 a.u.

Series 4 — observed: enzyme activity; action: inhibitor; tested at: 0.5 µM; relative to: control; quantity: remaining activity
Target: PAS domain-containing serine/threonine-protein kinase (PASK, Homo sapiens, UniProt Q96RG2)
UniProt Q96RG2, sequence (whole entry, looked up): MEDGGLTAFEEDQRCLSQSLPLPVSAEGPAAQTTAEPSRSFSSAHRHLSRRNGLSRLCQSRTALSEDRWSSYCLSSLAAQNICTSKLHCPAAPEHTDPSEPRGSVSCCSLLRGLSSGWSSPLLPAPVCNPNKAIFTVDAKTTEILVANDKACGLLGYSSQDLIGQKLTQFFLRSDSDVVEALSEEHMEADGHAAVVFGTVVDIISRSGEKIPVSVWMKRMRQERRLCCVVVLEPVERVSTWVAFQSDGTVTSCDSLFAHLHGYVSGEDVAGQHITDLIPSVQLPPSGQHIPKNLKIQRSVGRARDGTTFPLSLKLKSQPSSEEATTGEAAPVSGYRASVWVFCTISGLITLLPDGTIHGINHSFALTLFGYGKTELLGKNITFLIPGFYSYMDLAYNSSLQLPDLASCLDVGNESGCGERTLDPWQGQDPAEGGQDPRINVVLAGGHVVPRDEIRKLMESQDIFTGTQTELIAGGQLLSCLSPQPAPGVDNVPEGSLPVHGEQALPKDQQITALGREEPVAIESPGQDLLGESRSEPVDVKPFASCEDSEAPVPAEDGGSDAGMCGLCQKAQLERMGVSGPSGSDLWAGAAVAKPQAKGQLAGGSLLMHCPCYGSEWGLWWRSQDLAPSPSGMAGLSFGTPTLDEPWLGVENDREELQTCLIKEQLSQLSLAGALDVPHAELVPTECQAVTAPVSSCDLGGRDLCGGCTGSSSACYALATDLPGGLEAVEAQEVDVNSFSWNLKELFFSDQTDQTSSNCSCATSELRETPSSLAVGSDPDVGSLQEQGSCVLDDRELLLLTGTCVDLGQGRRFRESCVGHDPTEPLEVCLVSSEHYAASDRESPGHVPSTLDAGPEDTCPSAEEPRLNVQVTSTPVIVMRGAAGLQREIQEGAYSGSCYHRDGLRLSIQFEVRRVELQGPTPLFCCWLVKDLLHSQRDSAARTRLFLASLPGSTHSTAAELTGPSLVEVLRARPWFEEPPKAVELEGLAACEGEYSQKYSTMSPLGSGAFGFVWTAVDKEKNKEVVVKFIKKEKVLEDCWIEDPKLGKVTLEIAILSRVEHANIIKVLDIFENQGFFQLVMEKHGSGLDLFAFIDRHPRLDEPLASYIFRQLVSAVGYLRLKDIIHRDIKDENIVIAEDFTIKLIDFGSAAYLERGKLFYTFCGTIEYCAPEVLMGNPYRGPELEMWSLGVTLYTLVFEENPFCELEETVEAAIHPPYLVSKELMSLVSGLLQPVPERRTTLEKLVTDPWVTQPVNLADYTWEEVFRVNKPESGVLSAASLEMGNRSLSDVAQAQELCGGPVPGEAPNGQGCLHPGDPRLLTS
COc1ccc(CNC(=O)Nc2ncc([N+](=O)[O-])s2)cc1: 106%
N#CC(C#N)=C(N)/C(C#N)=C/c1ccc(O)cc1: 82.9%
COc1ccc(C(=O)Nc2sc3c(c2C(N)=O)CCCC3)cc1OC: 101%
CO[C@H]1C[C@@H]2CC[C@@H](C)[C@@](O)(O2)C(=O)C(=O)N2CCCC[C@H]2C(=O)O[C@H]([C@H](C)C[C@@H]2CC[C@@H](O)[C@H](OC)C2)CC(=O)[C@H](C)/C=C(\C)[C@@H](O)[C@@H](OC)C(=O)[C@H](C)C[C@H](C)/C=C/C=C/C=C/1C: 101%
OCC(O)CCON=C1C(c2c(O)[nH]c3ccccc23)=Nc2ccccc21 (stereo not drawn): 89.8%
Cn1sc(=O)n(Cc2ccccc2)c1=O: 101%
NCCNc1ncc(C(N)=O)c(Nc2cccc(C(F)(F)F)c2)n1: 75.1%
C#Cc1cccc(Nc2ncnc3cc(OCCOC)c(OCCOC)cc23)c1: 97.4%
Cc1ccc(Nc2nccc(N(C)c3ccc4c(C)n(C)nc4c3)n2)cc1S(N)(=O)=O: 101%
Cn1c2ccccc2c2c3c(c4c5ccccc5n(CCC#N)c4c21)CNC3=O: 84.3%
COc1cc2ncnc(Nc3ccc(F)c(Cl)c3)c2cc1OCCCN1CCOCC1: 97.9%
Nc1ccc2ncnc(NCCc3ccc(Oc4ccccc4)cc3)c2c1: 103%
Nc1[nH]nc2nc3ccccc3nc12: 93.7%
O=C(CCCc1ccc(-c2ccccc2F)cc1)Nc1ccc(O)cc1: 101%
O=S(=O)(c1cccc2cnccc12)N1CCCNCC1: 97.1%
CNC(=O)c1cc(Oc2ccc(NC(=O)Nc3ccc(Cl)c(C(F)(F)F)c3)cc2)ccn1: 99.5%
